Measured values pooled from the literature.
Parts stem from different laboratories: compare values within a part only.

Sample 1
Target: Histone acetyltransferase KAT6A, both winged helices, GST fusion (KAT6A, Homo sapiens, UniProt Q92794, residues 1-181)
Technique: protein binding microarray
Molecule type: double-stranded DNA, one strand shown
Sample: in vitro
Tested at: not given
Notes: 8-mer, flanks averaged, mean of 2 arrays, mostly near background
Baseline: not given
Direction: higher = stronger binding
Target sequence (chain): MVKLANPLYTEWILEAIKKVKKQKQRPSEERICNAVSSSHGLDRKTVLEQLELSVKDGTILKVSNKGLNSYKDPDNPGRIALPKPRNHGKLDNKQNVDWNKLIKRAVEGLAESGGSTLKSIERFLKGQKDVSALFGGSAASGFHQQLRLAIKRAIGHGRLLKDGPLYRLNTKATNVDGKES
Strand | E-score
CTCATGAA | -0.00321
ATCGCAAG | -0.00777
CCTGCCCG | 0.135
ATGCACGC | 0.13
GTCCACCA | -0.151
CGGTTAAA | 0.0133

Sample 2
Target: Interferon regulatory factor 5, full length, phosphomimetic (IRF5, Homo sapiens, UniProt Q13568-2, residues 1-514, S451D/S453D/S456D/S462D)
Technique: protein-binding microarray
Molecule type: double-stranded DNA, one strand shown
Sample: in vitro
Tested at: 940 nM top
Notes: 60-bp whole probe
Added: salmon DNA 0.4 mg/ml
Baseline: random background probes
Direction: higher = stronger binding
All sequences stand within: GCCTAGCAC … GTCTTGATTCGCTTGACGCTGCTG
Strand | fitted relative affinity [z-score]
TTAGGTTTCACTTTCCAAAAGTGCTAG | 10.2
GAGGGTTTCGGGTATCGGGACGTGCTA | 7.32
GACGATTTCGGGTATCGAGAAGTGCTA | 1.47
TTAGATATCGACACTGGGTTAGTGCTA | 0.308
GACGGACTGGGTCCCGGGACGTGCTAG | -0.663
GACGGACTGCTCCTCCTGACGTGCTAG | -0.206

Sample 3
Target: RNA binding protein fox-1 homolog 2, RRM domain, GST-SBP tag (RBFOX2, Homo sapiens, UniProt O43251-10, residues 100-194)
Technique: RNA Bind-n-Seq
Molecule type: RNA
Sample: in vitro
Tested at: 365 nM
Notes: natural RNA segment, single round, ends assumed
Baseline: no-protein control
Direction: higher = stronger binding
All sequences stand within: GGGAGUUCUACAGUCCGACGAUC … UGGAAUUCUCGGGUGCCAA
Strand | RBNS enrichment (R)
AUAUAGGAAUAUUAUUUUCCAUAUGAUCUGUUGUAUGGUGUAUAUGCUAUGUGUUCAUUUCGUGUGCAAGUUCAGAGUGUAAUAGAUUUACCCAGAGAAGGUGUUUCUAU | 0.652
UUGAAGCAUGUGUUACCUGGUUAAGCUUGUUUUCUCUUGCUUUAGGCAAAUAAAAGUUUAAAAAUCACCUUGUUGUGGUUUUCCUGUACCAAAUCACACCUACCUGCCCC | 0.658
GGGGGGUGUGAGUGGGUGCAUUUUUUAAAGCUGUCUUGAAUACCUAUUUAAAUGUGUGUUUUGGGGUGUUUUUUUUAGGGUUUUUUUUUUAAGCUGCCUGUGAUAUGUCC | 1.56
UUCCCACUGCAGUGGACCUACUCGGCUUCCUCCCACUGCAAUCCAUUGCCUCUCAGCAUUCCGGCCUAAGUUGCGCCCUCCCAGUAUCAGCUCUGAAAGUCUAGGAAUAG | 0.521
GUUUACAAUAUUAAAAUGUAUGUUAGCAAAAUGGGUGGAUUUUCAAAUAAAAUGCAGCUUCCACAAAGUUUUGUUAUGGUAUUCUGGUCUGAGAUGCAUUUUCAUUUUUC | 1.76

Mixed results
Molecule | target | assay | system | conditions | how to read | measurement | result
PhoQ, residues 284 288 289 292 302 303 TNASYF | PhoP, residues 12 14 15 18 19 TQAIL (Escherichia coli, UniProt P23836) | Sort-seq, measured: YFP reporter | E. coli | PhoQ-PhoP variant library, added: 10 µM Mg2+ | baseline: high Mg2+ state, higher = stronger signaling | fold induction | 19.4

A few entries again (sample 1):
Strand | E-score
CTCATGAA | -0.00321
ATCGCAAG | -0.00777
